Measured values of several laboratories.
Every numbered part comes from another study and shows a few of its results, in no order. Substitutions count along the parent as printed.

Block 1
Target: ATF3, bZIP domain (human)
Method: DHFR protein complementation
Matrix: yeast
Setting: single substitutions, most at no-binding floor
Relative to: wild-type JUN-FOS pair
Reading: higher = stronger binding
Parent: JUN, bZIP domain (human); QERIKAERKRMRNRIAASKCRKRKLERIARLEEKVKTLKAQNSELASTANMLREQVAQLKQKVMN; partner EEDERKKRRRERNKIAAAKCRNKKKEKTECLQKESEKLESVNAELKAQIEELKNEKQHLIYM
Substitution | binding fitness [natural log]
V35T | -0.512
K39T | -0.198
N42Q | -0.167
K39N | -0.354
N42L | -1.06
V35H | -0.774
S47H | -0.0803
Q55W | -0.962
E54V | -0.395
M51S | -0.0682
N42Y | -0.231
E44R | -0.187
R30A | 0.107
V35M | -0.306
A46E | 0.00159
A46P | -1.06

Block 2
Target: CCNB3, cyclin fold, Cln2 fusion (human)
Method: yeast growth competition, sequencing
Matrix: yeast
Setting: weak parent motif
Relative to: not given
Reading: higher = stronger binding
Parent: MASTL docking peptide (human); PMIAKNLMCELDE
Substitution | normalised enrichment score
D12W | -0.154
L7N | -0.234
K5C | 0.326
M2I | -0.112
E10H | 0.09
E10R | 0.193
E10F | -0.117
M2T | 0.0125
I3Y | 0.287
C9V | -0.122
C9W | -0.283
M8I | -0.144
M8D | -0.226
D12F | 0.364
L7W | 0.0143
E10D | 0.0719

Block 3
Target: ABI1, truncated, D143A, DHFR fusion (Arabidopsis thaliana)
Method: DHFR PCA, deep sequencing
Matrix: yeast
Setting: methotrexate growth selection, single substitutions
Added: (+)-ABA 0.11 µM
Relative to: wild-type fitted maximum
Reading: higher = stronger binding
Parent: PYL1, truncated, DHFR fusion (Arabidopsis thaliana); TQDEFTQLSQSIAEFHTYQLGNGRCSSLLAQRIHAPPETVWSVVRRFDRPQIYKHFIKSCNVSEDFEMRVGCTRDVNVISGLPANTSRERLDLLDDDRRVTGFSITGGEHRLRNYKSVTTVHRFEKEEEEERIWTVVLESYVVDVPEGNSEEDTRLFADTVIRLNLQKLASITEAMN
Substitution | relative binding score
L82I | 30.6%
V78G | 15.3%
A158N | 11.9%
M176A | 19.3%
N22R | 40%
M176R | 12%
K126D | 52.9%
I172L | 20.6%
P50W | 5.61%
T6S | 42.6%
S87R | 62.5%
D153I | -6.68%
Q2C | 42.5%
T106Q | 7.52%
D159Q | -9.11%
L169R | 3.87%
L91P | -1.14%
E147G | -1.37%
V118K | -0.738%
V70L | -1.73%
F5C | 14.4%
E129N | 41%
Q31H | 5.94%
S80E | 0.148%
A13L | 20.8%

Block 4
Target: Probable WRKY transcription factor 33, N-terminal DNA-binding domain (WRKY33, Arabidopsis thaliana, UniProt Q8S8P5, residues 169-264)
Method: DNA-protein interaction ELISA
Molecule type: double-stranded DNA, one strand shown
Matrix: in vitro, bacterial lysate
Tested at: not given
Setting: whole dsDNA probe, crude lysate protein
Relative to: highest signal in screen
Reading: higher = stronger binding
Residues (chain): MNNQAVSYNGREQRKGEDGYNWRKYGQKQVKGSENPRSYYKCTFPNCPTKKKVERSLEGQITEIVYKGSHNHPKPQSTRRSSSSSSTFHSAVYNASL
Sequence | relative absorbance
AAAAAATCTTACCCCTCCGCTTCTATAAAA | 17.8 % of maximum
AAAAAACTGTCTGTCCTATATCACTTAAAA | 24.9 % of maximum
AAAAAACAGTTCGATGTCACCCCCGCAAAA | 35.2 % of maximum
AAAAAATCGTAAATGCCCATAGCCGTAAAA | 21.7 % of maximum
AAAAAAAGGGTGCTATTCGTCGACACAAAA | 21.5 % of maximum
AAAAAATCTAGGGGTACCTATTTGGCAAAA | 25 % of maximum
AAAAAAGGGCCCACTATCGACGTCAAAA | 21.5 % of maximum
AAAAAAGTCCATAAACTAAATTGGATAAAA | 23.5 % of maximum
AAAAAACGCCGGACAATCAGGCGCTCAAAA | 19.6 % of maximum
AAAAAATATTCGCCGGTAGCCACGCTAAAA | 33.3 % of maximum
AAAAAATACTCTTCCTCGTTCTTGGTAAAA | 20.4 % of maximum
AAAAAAGGTCCAGTCCACGTCATCAGAAAA | 28.1 % of maximum
AAAAAAAACAAAACCTCCTAATAGCGAAAA | 23.6 % of maximum
AAAAAACGCATCATAGCTACGCCCCAAAAA | 24.7 % of maximum
AAAAAAACATCCACACCCGCGGCGCGAAAA | 19.1 % of maximum
AAAAAACTTCCCTCCTTGTCCTCCCCAAAA | 31.4 % of maximum
AAAAAATATCATTGTTACCGTTGCTAAAAA | 25.6 % of maximum
AAAAAAAAATGCTAGCGCGTACGTAAAAAA | 20.6 % of maximum
AAAAAACCGACCTGCACGTCGCTGCTAAAA | 21.7 % of maximum
AAAAAAGTCGTCACGCACGTGAATACAAAA | 37.1 % of maximum
AAAAAATGGAAGGAGAGGGATGAAATAAAA | 20.5 % of maximum
AAAAAAAAGGACATTTTTTCTTTTTGAAAA | 25.6 % of maximum
AAAAAACCTTACTGTTGATTCTGGTTAAAA | 22.9 % of maximum

Block 5
Target: RNA binding protein fox-1 homolog 2, RRM domain, GST-SBP tag (RBFOX2, Homo sapiens, UniProt O43251-10, residues 100-194)
Method: RNA Bind-n-Seq
Molecule type: RNA
Matrix: in vitro
Tested at: 365 nM
Setting: natural RNA segment, single round, ends assumed
Relative to: no-protein control
Reading: higher = stronger binding
Shared flanks, not repeated: GGGAGUUCUACAGUCCGACGAUC … UGGAAUUCUCGGGUGCCAA
Residues (chain): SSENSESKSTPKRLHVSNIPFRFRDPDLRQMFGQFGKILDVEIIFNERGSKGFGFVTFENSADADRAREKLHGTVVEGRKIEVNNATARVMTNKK
Sequence | RBNS enrichment (R)
UGUAAAGUUAUGUAUUUAAAGUUGUAUCUUGACACAGGAAAUGGGAAAAAACUUAAAAAUUAAUAUGGUGUAUUUUUCCAAAUGAAAAAUCUCAAUUGAAAGCUUUUAAA | 1.08
UAAACCUGAUUUUUGUUUUCAAAUAAGAAUGUAAGCAUUUUACUUAAACUGUACUGUUUGCAAGUAGUUUAUAGAAAUUUUGUUUUAAGUCUUCAAAUACCUUGAAAAAA | 0.552
ACUUCCAUAUUCCAUUCCUUCCUCCUAAGGGACAAUGGAAGUUCUCAGAAGAGUAUCUUCAGUAAGAGGAGAGUAACUUUUUUUUUGCUGCUCCCGCUAUAUCCCAGGCC | 0.249
UAAUGUAUUGUUGGUAAUUAUUUUGGUACUUUUAUGAUGUAUAUUUAUUAAACAGAUUUUUACAAAUAGUUAUCCUGAUCAUUUUCUUCAGGCUGCCGUGGGCCUCCGGU | 0.361
AUUGUUGCAGAGCUAGCUCCACAGAGUCAGAAAGUUCUGACCCACAUUAGACCCGUGUGCGCUGCUAAGGCCAUGGUAACCCUCUGGGGACAGGCAGCCAUUGAUGGGAG | 0.291
CCAUCUGUGUGUUGUAGCCACUCACUGUUCACAUCGAGUGUCUCUAGUAACUGCCUCUGGACUCGGAACAGUGAGUAGGAUCAAAAUAAAUACUGUACAUGGUGGGGAAU | 0.518
CUAUGUGGCAUCAACCAGUGCCAUUACCUCCUGUGGCACCAUAGAGCCCAAUCUCAGGGCAGACAUUGCCAAGGUAAAGAAUGCACUCCAUGUUUAUACCAAAUUGCACA | 0.85
CUCAGGCAUGACUACGCUGUUUGAAACAGACAGAUGUUUACUCUUCCUUGUAAUGAGUAGGUUUGGAUUUAAGAGCCGAUUAGAGGCUACUUCCUGUAAACAAGUACAGG | 0.63

For quick reference, copied from above (block 5):
Sequence | RBNS enrichment (R)
CCAUCUGUGUGUUGUAGCCACUCACUGUUCACAUCGAGUGUCUCUAGUAACUGCCUCUGGACUCGGAACAGUGAGUAGGAUCAAAAUAAAUACUGUACAUGGUGGGGAAU | 0.518
AUUGUUGCAGAGCUAGCUCCACAGAGUCAGAAAGUUCUGACCCACAUUAGACCCGUGUGCGCUGCUAAGGCCAUGGUAACCCUCUGGGGACAGGCAGCCAUUGAUGGGAG | 0.291
ACUUCCAUAUUCCAUUCCUUCCUCCUAAGGGACAAUGGAAGUUCUCAGAAGAGUAUCUUCAGUAAGAGGAGAGUAACUUUUUUUUUGCUGCUCCCGCUAUAUCCCAGGCC | 0.249
UGUAAAGUUAUGUAUUUAAAGUUGUAUCUUGACACAGGAAAUGGGAAAAAACUUAAAAAUUAAUAUGGUGUAUUUUUCCAAAUGAAAAAUCUCAAUUGAAAGCUUUUAAA | 1.08
UAAACCUGAUUUUUGUUUUCAAAUAAGAAUGUAAGCAUUUUACUUAAACUGUACUGUUUGCAAGUAGUUUAUAGAAAUUUUGUUUUAAGUCUUCAAAUACCUUGAAAAAA | 0.552
CUCAGGCAUGACUACGCUGUUUGAAACAGACAGAUGUUUACUCUUCCUUGUAAUGAGUAGGUUUGGAUUUAAGAGCCGAUUAGAGGCUACUUCCUGUAAACAAGUACAGG | 0.63
UAAUGUAUUGUUGGUAAUUAUUUUGGUACUUUUAUGAUGUAUAUUUAUUAAACAGAUUUUUACAAAUAGUUAUCCUGAUCAUUUUCUUCAGGCUGCCGUGGGCCUCCGGU | 0.361
CUAUGUGGCAUCAACCAGUGCCAUUACCUCCUGUGGCACCAUAGAGCCCAAUCUCAGGGCAGACAUUGCCAAGGUAAAGAAUGCACUCCAUGUUUAUACCAAAUUGCACA | 0.85
